Published values pooled from the literature.
Compare with care: the assays were run in different laboratories. ± gives the spread as reported.
Organism: Plasmodium falciparum

CC(C)(C)OCc1ccc(-c2ccc3ncnc(Nc4ccc(OCc5cccc(F)c5)c(Cl)c4)c3c2)cc1 has an EC50 of 600 nM (parasite growth, SYBR Green; D6; blood stage).
Cc1cc(Nc2ccc(Cl)cc2)n2nc(C(F)(F)F)nc2n1 gave an EC50 of 39.4 nM (parasite growth, SYBR Green; 3D7).
The EC50 of O=S(=O)(c1ccc(-c2ccc3ncnc(Nc4ccc(OCc5ccccc5F)c(Cl)c4)c3c2)cc1)N1CCOCC1 is reported as 570 nM (parasite growth, SYBR Green fluorescence; W2, drug-resistant).
CC(NC(=O)c1cccc(C(c2ccccc2)N2C(=N)NC(C)(C(C)C)CC2=O)c1)c1ccccc1 (stereo not shown) has an EC50 of 12.5 nM (parasite growth; 3D7).
For COc1ccccc1-n1c(SCC(=O)Nc2ccccc2F)nc2cccnc21, the EC50 was 143 nM (parasite growth, SYBR Green; 3D7).
The EC50 of CCC1(CC)CC(=O)N(C2CCOc3ccc(C(=O)NC4CC(C)(C)Oc5ccccc54)cc32)C(=N)N1 (stereo not shown) is reported as 0.5 ± 0.2 nM (parasite growth; 3D7).
For Fc1cccc(COc2ccc(Nc3ncnc4ccc(-c5cccc(CN6CCOCC6)c5)cc34)cc2Cl)c1, the EC50 was 290 nM (parasite growth, SYBR Green fluorescence; C235 (TM91C235), drug-resistant).
For C[C@H]1Cc2c([nH]c3cc(Cl)c(F)cc23)[C@@]2(N1)C(=O)Nc1ccc(Cl)cc12, the EC50 was 1.9 ± 0.1 nM (parasite growth; Dd2-ATV).
CN(C)S(=O)(=O)c1ccccc1-c1ccc2ncnc(Nc3ccc(OCc4cccc(F)c4)c(Cl)c3)c2c1 has an EC50 of 820 nM (parasite growth, SYBR Green; D6; blood stage).
OC(c1cc(C(F)(F)F)nc2c(C(F)(F)F)cccc12)C1CCCCN1 (stereo not shown) has an EC50 of 25 ± 2.8 nM (parasite growth; W2Mef).
COCCN(C)C(C)C(=O)NC(Cc1ccc(-c2ccccc2)cc1)B(O)O (stereo not shown) gave an IC50 of 8220 ± 650 nM (compound-selected recrudescent clone 1E9_F3; 72 h).
COc1ccccc1-n1ccnc1SCC(=O)Nc1cc(C(F)(F)F)ccc1Cl gave an EC50 of 429 ± 140 nM (parasite growth, SYBR Green; 3D7 wild type; 72 h).
With O=C1C(O)=C([C@H]2CC[C@H](c3ccc(Cl)cc3)CC2)C(=O)c2ccccc21 the EC50 was 13.5 ± 1.6 nM (parasite growth; Dd2-ATV).
COc1ccc2cc1Oc1cc3c(cc1OC)CCN(C)C3Cc1ccc(cc1)Oc1c(O)c(OC)cc3c1C(C2)N(C)CC3 (stereo not shown) gave an IC50 of 1390 ± 880 nM (parasite growth, stage-specific treatment; 12 h, early to late trophozoite stage).
CCN(CC)CCCC(C)Nc1ccnc2cc(Cl)ccc12 (stereo not shown) gave an EC50 of 602 ± 187 nM (parasite growth; CAM3 REV).
The EC50 of CCCN(Cc1nnc(-c2ccco2)o1)C(=O)C1CCCN(C(=O)c2ccc(Cl)cc2)C1 (stereo not shown) is reported as 98.3 nM (parasite growth, SYBR Green; 3D7).
The EC50 of O=S(=O)(c1cccc(-c2ccc3ncnc(Nc4ccc(OCc5cccc(F)c5)c(Cl)c4)c3c2)c1)N1CCCCC1 is reported as 330 nM (parasite growth, SYBR Green fluorescence; C235 (TM91C235), drug-resistant).
With O[C@]12C=C(c3nccc4c3[nH]c3ccccc34)[C@@H]3CCN(CCCC/C=C\CC1)C[C@@]31C[C@@H]3/C=C\CCCCN3[C@H]12 the IC50 ratio was greater than 3 fold (D6, chloroquine-sensitive; baseline: compound over 4).
Cc1cc(Cl)ccc1OC(C)C(=O)N1CCc2ccccc21 (stereo not shown) has an EC50 of 312 ± 78 nM (parasite growth, SYBR Green; 3D7 wild type; 72 h).
The EC50 of Fc1cccc(COc2ccc(Nc3ncnc4ccc(-c5cccc(CN6CCCCC6)c5)cc34)cc2Cl)c1 is reported as 65 nM (parasite growth, SYBR Green fluorescence; C235 (TM91C235), drug-resistant).
Cc1nc2c(C#N)cccc2n1-c1ccc(C(=O)NC2CC2)s1 gave an EC50 of 77.1 nM (parasite growth, SYBR Green; 3D7; 72 h).
The EC50 of Fc1cccc(COc2ccc(Nc3ncnc4ccc(-c5ccc(N6CCCCC6)cc5)cc34)cc2Cl)c1 is reported as 580 nM (parasite growth, SYBR Green; D6; blood stage).

Repeated from above:
CN(C)S(=O)(=O)c1ccccc1-c1ccc2ncnc(Nc3ccc(OCc4cccc(F)c4)c(Cl)c3)c2c1 has an EC50 of 820 nM (parasite growth, SYBR Green; D6; blood stage).
The EC50 of CCCN(Cc1nnc(-c2ccco2)o1)C(=O)C1CCCN(C(=O)c2ccc(Cl)cc2)C1 (stereo not shown) is reported as 98.3 nM (parasite growth, SYBR Green; 3D7).
Cc1cc(Cl)ccc1OC(C)C(=O)N1CCc2ccccc21 (stereo not shown) has an EC50 of 312 ± 78 nM (parasite growth, SYBR Green; 3D7 wild type; 72 h).
COc1ccccc1-n1ccnc1SCC(=O)Nc1cc(C(F)(F)F)ccc1Cl gave an EC50 of 429 ± 140 nM (parasite growth, SYBR Green; 3D7 wild type; 72 h).
